Results from different studies.
Each numbered part is a random draw from the data of one study; scales do not carry over between parts. Substitutions count along the parent as printed.

Sample 1
Target: ABI1, truncated, D143A, DHFR fusion (Arabidopsis thaliana)
Technique: DHFR PCA, deep sequencing
Sample: yeast
Setting: methotrexate growth selection, single substitutions
Added: (+)-ABA 0.032 µM
Relative to: wild-type fitted maximum
Reading: higher = stronger binding
Starting sequence: PYL1, truncated, DHFR fusion (Arabidopsis thaliana); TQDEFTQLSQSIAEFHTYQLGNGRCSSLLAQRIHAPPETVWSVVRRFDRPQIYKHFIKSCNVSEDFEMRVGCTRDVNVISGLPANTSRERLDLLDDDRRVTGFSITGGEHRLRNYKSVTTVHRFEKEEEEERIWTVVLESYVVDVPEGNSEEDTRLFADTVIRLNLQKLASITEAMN
Change | relative binding score
E147G | -4.98%
V78E | -4.11%
H122T | -1.86%
T160E | 11%
K58A | 9.07%
E131G | 52.6%
P50W | -4.82%
D153I | -7.03%
D95P | 1.64%
V142M | -4.22%
P83T | 18.4%
V143G | -1.94%
H16D | 6.96%
Q19K | 42.7%
M176A | 9.96%

Sample 2
Target: CREB3L3, bZIP domain (human)
Technique: DHFR protein complementation
Sample: yeast
Setting: single substitutions, most at no-binding floor
Relative to: wild-type JUN-FOS pair
Reading: higher = stronger binding
Starting sequence: JUN, bZIP domain (human); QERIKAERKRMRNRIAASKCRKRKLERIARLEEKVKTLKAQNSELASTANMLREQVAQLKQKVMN; partner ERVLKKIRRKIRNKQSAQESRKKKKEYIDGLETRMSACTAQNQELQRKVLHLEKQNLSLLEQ
Change | binding fitness [natural log]
V56W | -1.34
S47F | -1.34
E54S | -1.27
E44I | -1.56
K39P | -1.48
T37K | -1.57
S47R | -1.41
A49E | -1.47
R30W | -1.32
K34I | -1.34
V56Y | -1.32
A46W | -1.45
E44G | -1.52
Q55N | -1.47
E32L | -1.32

Sample 3
Target: RNA binding protein fox-1 homolog 2, RRM domain, GST-SBP tag (RBFOX2, Homo sapiens, UniProt O43251-10, residues 100-194)
Technique: RNA Bind-n-Seq
Form: RNA
Sample: in vitro
Concentration: 365 nM
Setting: natural RNA segment, single round, ends assumed
Relative to: no-protein control
Reading: higher = stronger binding
Shared flanks, not repeated: GGGAGUUCUACAGUCCGACGAUC … UGGAAUUCUCGGGUGCCAA
Residues (chain): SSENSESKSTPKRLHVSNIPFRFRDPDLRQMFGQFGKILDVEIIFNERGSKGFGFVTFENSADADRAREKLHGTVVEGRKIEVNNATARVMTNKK
Strand | RBNS enrichment (R)
UGUGUGCUUUCCACAGGGGCGUCUCUGCGUCCACGCCUGCACAUCCCGGCGCACGUGUGGGCACCACAGAGGACACGUGAGGGGAAUGGUCACCAGUGAGCCAUAUUUAU | 0.344
AAAUAUGAAUGGACCCAUUUCAAGAACAAGUUCUAGUAUCCCUGCUAAUAAUCCUUUAGUUACUCAGCUGCUCCAGGGCAAAGAUGUUCCCUUGGAGCAAAUUCUGCCUA | 0.394
UUUCCUAAAAGCAUCCUUCAUCUGCAUUCCAUCCUGGGUCAGCAUCAACCACAACAUAGCAGGCAUUCCCUUGCAGCUGCAGUACAGUAGCAGUGUCCUUUUCUGAGGAA | 1.89
CGGUCUCACUGAUAACAGCUCCAGAAAAAAAGACAAGGCUCCCCCUCUGACCCUUCCUGUUGGUAUUUAUGAAAUCUCAAAGAGAUGAGCCACCUUGGCUUCCAAUAUGG | 0.593
GAUUUGGUGCUAAGUUAAUUAGAAACUGGCAGCGUUUUACAGUAGUACACCAGCCUGGAUGUUUUUUCUAAAAUGUUUACCUGGGAGAGCUGGGGUUUGUUUGUGAGGAG | 1.07
CAUCGCCCUGGUGAACGGGGUCAGCGGCGAGCUCAUCGAGGCCCGGGCCUUUGACAUGUGGGCCGGAGUGAGUUGCAGCGCAGCGUCUUGCAUUUUGACUGCAGCAAAAU | 1.43
GACAUCCAUAAGGAAUGCCAAAUGCUGUAUUGAAUAGUUCUCCUGUGUGACUUUCUAGAGAAGCCAGGACACCCCUGAGCCUUUCCUGGGAACUCCUAAGGAAGUCACAG | 0.243
CUUCCAUGCAGGAGCACGGCAUGGCGGGAGCGGGGCUGCAGAGUAUCCGAGGUGCUGCCGGGGCAGCGGGAGGUGGCUGGACCCAUCGCAUCUAAAACUGGCCCAGGACA | 1.34
GAUGUGCAGCAGAUUGGAAGGAGACACAGAUGUUCGGUUUUUUUCCUGUUUCUGAAAAGAAAUAAUAAUAUCCAGGUCAACAGAAUGAAAAAUGAAAGAUGAUUUGCAAU | 1.2
AAAGAUAUGUCAUAGUUGCCAUAAAAGAGGCUGAUUGUGAAAUUCUGGUGGACUAGGCAAGGUACAGUUUAUGGUUAUCCCCAUCAUCAGCUUAGGUCACUUGAACAUGU | 0.413
UGCCGGAUUCUAGGUUAGCAAAGACUCAAAUGGGUGACUCAUGAAUGAAGGGAGAACAGGCACAGGACUUAAUGAAAAGAGUUUCUUGAACUUAGUUUUCUGAAUGGGGG | 1.06
CUUUGGAGAGUAUUUUAGAAACUCCAAUGAAAGACACUGUUUCUCCUGUUGGCUCACAGGGCUGAAAGGGGCUUUUGUCCUCCUGGGUCAGGGAGAACGCGGGGACCCCA | 0.278

Sample 4
Target: CCNB2, cyclin fold, Cln2 fusion (human)
Technique: yeast growth competition, sequencing
Sample: yeast
Setting: strong parent motif
Relative to: not given
Reading: higher = stronger binding
Starting sequence: CUX1 docking peptide (human); SRIRRELFIEEIQ; partner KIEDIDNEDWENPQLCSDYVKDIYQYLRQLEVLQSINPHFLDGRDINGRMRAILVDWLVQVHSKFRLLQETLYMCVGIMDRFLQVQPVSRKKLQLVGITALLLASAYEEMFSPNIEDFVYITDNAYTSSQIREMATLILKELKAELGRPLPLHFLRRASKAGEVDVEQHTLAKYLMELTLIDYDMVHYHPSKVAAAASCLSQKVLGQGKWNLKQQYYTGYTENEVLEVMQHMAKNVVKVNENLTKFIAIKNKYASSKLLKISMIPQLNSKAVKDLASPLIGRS
Change | normalised enrichment score
S1A | 0.937
F8A | 0.445
E10A | 0.747
R4A | 0.266
E11A | 0.837
R5K | 1.34
R5A | 0.3

Sample 5
Target: RING finger protein unkempt homolog, zinc fingers 1-6, SBP tag (UNK, Homo sapiens, UniProt Q9C0B0, residues 30-357)
Sequence of UniProt Q9C0B0 (30-357, looked up): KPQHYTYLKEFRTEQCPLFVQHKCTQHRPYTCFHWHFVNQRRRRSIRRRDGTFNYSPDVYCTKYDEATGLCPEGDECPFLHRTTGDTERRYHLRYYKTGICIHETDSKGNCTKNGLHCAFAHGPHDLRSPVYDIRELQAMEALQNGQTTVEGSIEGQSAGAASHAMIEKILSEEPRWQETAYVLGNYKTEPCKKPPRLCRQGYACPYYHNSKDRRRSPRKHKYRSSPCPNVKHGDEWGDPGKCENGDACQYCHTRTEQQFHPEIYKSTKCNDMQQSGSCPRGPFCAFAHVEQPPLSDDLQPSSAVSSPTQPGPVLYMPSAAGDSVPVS
Technique: RNA Bind-n-Seq
Form: RNA
Sample: in vitro
Concentration: 100 nM
Setting: RNA with constant flanks, vertebrate orthologous sites, ends assumed
Relative to: input RNA pool
Reading: higher = stronger binding
Shared flanks, not repeated: GGGAGUUCUACAGUCCGACGAUC … CAACAGAGGAUUGAGCAUCA
Strand | bound/input enrichment [ratio]
UUUCGGUUUUGCACAUGACAGUGUUUGUUUUGAGGAUCUUCUGAGGAAGAAGGGGUGCUAUGGUGGUGGUGCCUGGGUUCCUGGCCUCCAGUGCCCCACCCCCUCACCACCCCACCUGGC | 0.351
GGUGACUUUGGACGUCCUCACAGCCCGGCGAGGGUGACGGCUUAGUCUAGACCGACGGGUUCGUUUUCGUCCAUUGGGCUGCAGGCUGCUACCGCAAACAUGCUCCGCCAGAUCGUCGCC | 0.225
UAUUUUCUUAUUUUAGGUAUCAUUGCCCAGUGCCUAAGAUCUUUUAUGUUCAGCUCACUGUAGGAAAUAAUGAAUUUUUUGGGGAAGGAAAGACUCGGCAAGCUGCUAGACACAAUGCUG | 1.14
AUUAGGUCAUGACCCUUACAGGUUAGGUCAUGAUGCUUACAGGUUAGGACAGGACCCUUAUAGAUUAGGCCAUGAUCCCUACAGACUAACUCCUGAUCCCUAUAGGAUGUCACCUCGACC | 0.788
UUCUCCUGGGUUAGAGCGGGGUCUCCUUCUACAUCUCCCGUGAGGGGAAAAAGCCCCAAAUAGACUCCUUACACAUCUGAUUAGAGUGUUCUGUCUCUGCCAUCUACUUGUAUAUACAUG | 0.655
AAAUAGUUUUAAGCUUGUUUGCACAGCUUUUUUUUCCAUUGGAAAUGGAAUCCAUUGCCUUAGGUCUUUUUAAAUAGUGUAUUGUUAUCGUCGGGCUGGCUCUACGCUUGAAAUCCAGUU | 1.9
AAUCAAUAGGAUUACAUAAUACUAAAGUUGCAGUUGAAAGGAUAUCCAAGUAUGUGUUCGUAGUUACUGAAAGAAUUAUAGCUGUUAUUGCCUUGUAUUUAUAGCCCUUGUUUCAGGUUC | 0.795
GCACUAAAGGAGGUAGCAUCUUUAUUUUUGUAUCAAAGAUAAAGCUUAUUUUGAGAUUAUUAGGAUUUUUACACAACUCUGAAAUCUGUUGCUUUUGUAAACAGGUUGUUUGAUCUUAGG | 0.794
AUCUCUCCUUUUAUAUGUCAAAAAAAGGCUUUGAAUUUUUAAAUAAUUGCUAGUUUUGAUUAGCUCUACCUUUAUGAAGUGUUAUAAUUCACCACAAACAGAUAUCUGUCUGAAUUACUU | 0.353
GUUUUUUAAUGCCCUCAACAGGCUGGUUUUUUUCAUGCUGCCUUCAAGUGCUUAUGGUAAGCUUGUUACUUUGGGCUCAGUUACUUUAGUAGAUUGGAUCAAGCAGUAGAGCUGUCCGUU | 0.54
CCCAUGGCUGCUUUGUGUCACCUCAGUGACUUACAGUCCCCCUUGGCAUUUAGUUGGUACUAGAGCCAGUCAUCCUUAACAAAUCUUUUCACAUUUUAUUUCUUUCACAUGUAGUCAUCU | 2

Sample 6
Target: Sal-like protein 4, full length isoform A (SALL4, Homo sapiens, UniProt Q9UJQ4, residues 1-1053)
Sequence of UniProt Q9UJQ4 (whole entry, looked up): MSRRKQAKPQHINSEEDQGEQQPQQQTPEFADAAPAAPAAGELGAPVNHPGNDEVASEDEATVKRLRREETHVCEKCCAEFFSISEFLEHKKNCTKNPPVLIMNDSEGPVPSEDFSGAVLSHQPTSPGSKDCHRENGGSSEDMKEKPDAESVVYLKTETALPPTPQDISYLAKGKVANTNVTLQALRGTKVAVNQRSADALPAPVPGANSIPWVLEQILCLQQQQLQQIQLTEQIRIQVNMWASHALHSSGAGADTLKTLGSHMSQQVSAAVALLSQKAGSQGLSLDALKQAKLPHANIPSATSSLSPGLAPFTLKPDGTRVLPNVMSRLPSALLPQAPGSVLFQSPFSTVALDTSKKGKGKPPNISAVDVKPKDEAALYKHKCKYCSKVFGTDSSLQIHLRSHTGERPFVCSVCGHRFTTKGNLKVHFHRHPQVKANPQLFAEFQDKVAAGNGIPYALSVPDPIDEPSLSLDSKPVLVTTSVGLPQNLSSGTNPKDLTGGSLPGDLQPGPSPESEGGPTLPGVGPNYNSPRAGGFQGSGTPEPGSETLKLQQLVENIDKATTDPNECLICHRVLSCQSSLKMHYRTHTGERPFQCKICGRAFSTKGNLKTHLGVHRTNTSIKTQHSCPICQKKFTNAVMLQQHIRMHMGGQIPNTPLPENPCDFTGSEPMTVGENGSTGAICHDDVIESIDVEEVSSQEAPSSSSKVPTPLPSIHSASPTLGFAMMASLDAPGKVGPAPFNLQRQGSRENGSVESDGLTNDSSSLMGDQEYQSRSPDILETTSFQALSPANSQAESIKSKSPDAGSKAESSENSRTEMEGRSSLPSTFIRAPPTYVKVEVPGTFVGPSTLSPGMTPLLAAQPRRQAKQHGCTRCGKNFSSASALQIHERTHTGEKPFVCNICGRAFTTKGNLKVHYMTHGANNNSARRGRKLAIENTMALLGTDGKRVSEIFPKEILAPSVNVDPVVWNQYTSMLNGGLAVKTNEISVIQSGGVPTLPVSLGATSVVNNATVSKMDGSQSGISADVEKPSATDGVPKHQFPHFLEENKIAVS
Technique: universal PBM
Form: double-stranded DNA, one strand shown
Sample: in vitro
Concentration: 600 nM
Setting: 8-mer, flanks averaged, mean of replicates
Reading: higher = stronger binding
Strand | E-score
GCACGTCC | -0.192
ATATCTCC | 0.189
CGTCCACA | -0.149
AGTTGGCG | -0.0525
TCTTTCCA | -0.0207
AGACCATG | -0.22
GCATCCCA | -0.09
ACCATCGT | -0.192
GTAGGCAA | 0.0542
AAACTACG | -0.0108
CTTCTAAC | 0.0289
CGCGACTA | -0.127
CACAGACC | -0.243
AATTCGTG | 0.0894
ACTGTGTA | 0.128
CCCATTGA | -0.0654
CCCGCGTC | -0.319
CCAGGCAC | -0.0188
AGAACCTA | 0.00136
AAGATGAG | 0.00558
CCATTGAC | -0.0575
CGTAGCAA | 0.0525
GAATGACC | -0.072
ATAGAACC | 0.0712
CTACCGAA | 0.0207

For quick reference, copied from above (sample 1):
Change | relative binding score
V142M | -4.22%
P50W | -4.82%
V143G | -1.94%
P83T | 18.4%
H16D | 6.96%
M176A | 9.96%
H122T | -1.86%
